Published values from different studies.

`CC(C)=CCC/C(C)=C\CCn1cc(CC(P(=O)(O)O)P(=O)(O)O)nn1` gave a half-life of 107 h (CD-1 mouse, plasma; intravenous, 0.5 mg/kg, single dose).
The half-life of `CCCCCn1ccc(C(=O)NC(C)(C)c2ccc(CNC(C)=O)cc2)n1` is reported as 1.4 h (mouse, plasma; intraperitoneal, 2.5 mg/kg).
With `CN[C@H](CC(C)C)C(=O)N[C@H]1C(=O)N[C@@H](CC(N)=O)C(=O)N[C@H]2C(=O)N[C@H]3C(=O)N[C@H](C(=O)N[C@H](C(=O)O)c4cc(O)cc(O)c4-c4cc3ccc4O)[C@H](O)c3ccc(c(Cl)c3)Oc3cc2cc(c3O[C@@H]2O[C@H](CO)[C@@H](O)[C@H](O)[C@H]2O[C@H]2C[C@](C)(NCc3ccc(-c4ccc(Cl)cc4)cc3)[C@H](O)[C@H](C)O2)Oc2ccc(cc2Cl)[C@H]1O` the half-life was 12 h (mouse, plasma; intravenous, 10 mg/kg).
The half-life of `COc1nc(CC=C(C)CC=CC(C)=CC(C)C(OC2OC(CO)C(O)C(O)C2O)C(C)=CCO)c(C)c(O)c1OC` (stereo not shown) is reported as 0.376 h (C57BL/6 mouse, plasma; oral, 10 mg/kg).
With `NC1CCN(C(=O)Oc2ccc(C3CCCC4(C3)OOC3(O4)C4CC5CC(C4)CC3C5)cc2)CC1` (racemic) the half-life was 7 h (male mouse, plasma; oral, 50 mg/kg).
`O=C(CN1C(=O)C2(CCN(C(=O)c3ccc4[nH]ncc4n3)CC2)c2c(Br)cccc21)NCC(F)(F)F` has a half-life of 1.4 h (male C57BL/6 mouse, plasma; intravenous, 2 mg/kg).
With `CC(C)[C@H](NC(=O)[C@H](Cc1ccccc1)NC(=O)[C@H](Cc1ccccc1)NC(=O)OCC1c2ccccc2-c2ccccc21)C(=O)N[C@@H](CCC(=O)O)C(=O)N[C@@H](CCC(=O)O)C(N)=O` the half-life was 1.35 h (mass spectrometry; mouse, blood; intravenous, 10 mg/kg, single dose).
With `CC[C@H](C)[C@H](NC(=O)CNC(=O)[C@H](CCSC)NC(=O)[C@H](CCC(N)=O)NC(=O)[C@H](C)NC(=O)[C@H](CCC(N)=O)NC(=O)[C@@H](NC(=O)[C@H](CC(C)C)NC(=O)[C@H](C)NC(=O)[C@H](CO)NC(=O)[C@H](CCSC)NC(=O)[C@H](CCC(=O)O)NC(=O)[C@H](CC(C)C)NC(=O)[C@H](Cc1ccc(O)cc1)NC(=O)[C@H](CO)NC(=O)[C@H](CCC(=O)O)NC(=O)[C@H](CCC(N)=O)NC(=O)[C@H](CCCNC(=N)N)NC(=O)[C@H](CCCCN)NC(=O)[C@H](CC(=O)O)NC(=O)[C@H](CC(C)C)NC(=O)[C@H](CC(N)=O)NC(=O)[C@H](Cc1ccccc1)NC(=O)[C@H](CCC(=O)O)NC(=O)[C@H](CCCCN)NC(=O)[C@@H](NC(=O)[C@H](CC(C)C)NC(=O)[C@H](CCC(=O)O)NC(=O)[C@H](CCC(=O)O)NC(=O)[C@@H](NC(=O)[C@@H](NC(=O)[C@H](CCCNC(=N)N)NC(=O)[C@H](CCCCN)NC(=O)[C@H](C)NC(=O)[C@H](Cc1ccccc1)NC(=O)[C@H](CCC(=O)O)NC(=O)[C@H](CCC(=O)O)NC(=O)[C@H](CC(C)C)NC(=O)[C@@H](N)CO)C(C)C)C(C)C)C(C)C)[C@@H](C)CC)C(=O)N[C@@H](CO)C(=O)N[C@@H](CCC(=O)O)C(=O)N[C@@H](CCCNC(=N)N)C(=O)N[C@H](C(=O)N[C@H](C(=O)N[C@@H](CCC(=O)O)C(=O)N[C@H](C(=O)N[C@H](C(=O)N[C@@H](CC(C)C)C(=O)N[C@@H](CCCNC(=N)N)C(=O)N[C@@H](Cc1c[nH]cn1)C(=O)N[C@@H](C)C(=O)N[C@@H](C)C(=O)N[C@@H](CCC(N)=O)C(=O)N[C@H](C(=O)N[C@@H](CC(C)C)C(=O)N[C@@H](CCCCN)C(=O)O)[C@@H](C)O)C(C)C)[C@@H](C)CC)[C@@H](C)CC)[C@@H](C)CC` the half-life was 2.66 h (male mouse, plasma; intravenous, 1 mg/kg).
For `CCCCCCCCCCCCCCCCCC(=O)NC[C@H]1CC[C@H](C(=O)N[C@@H](CCC(=O)NCCCOCCOCCOCCCNC(=O)COCC(=O)N[C@@H](Cc2ccc(O)cc2)C(=O)NC(C)(Cc2ccccc2)C(=O)N[C@@H](CC(C)C)C(=O)N[C@@H](CCCC)C(=O)N[C@@H](CCCNC(=N)N)C(=O)N2CCC[C@H]2C(=O)N[C@@H](CCCNC(=N)NC)C(=O)N[C@@H](CC(N)=O)C(N)=O)C(=O)O)CC1` (stereo partly shown), the half-life was 4.7 h (male C57BL/6 mouse, plasma; subcutaneous, 0.75 mg/kg, single dose).
The half-life of `CC(C)C[C@@H](NC(=O)[C@@H](CCCCN)NC(=O)CNC(=O)CNC(=O)[C@@H]1CSSC[C@H](N)C(=O)NCC(=O)N[C@@H](CCCNC(=N)N)C(=O)N[C@@H](CCCNC(=N)N)C(=O)N[C@@H](C)C(=O)NCC(=O)NCC(=O)N[C@@H](CO)C(=O)N1)C(=O)N[C@H](C)C(=O)N[C@H](CCCCN)C(=O)N[C@H](CC(C)C)C(=O)N[C@H](C)C(=O)N[C@H](CCCCN)C(=O)N[C@H](CCCCN)C(=O)N[C@H](CC(C)C)C(=O)N[C@H](C)C(=O)N[C@H](CCCCN)C(=O)N[C@H](CC(C)C)C(=O)N[C@H](C)C(=O)N[C@H](CCCCN)C(=O)O` is reported as 0.25 h (mouse, plasma; intravenous, 15 mg/kg).
